Experimental data pooled from the literature.
Compare with care: the assays were run in different laboratories.
Organism: Mycobacteroides abscessus

Structure (SMILES) | test | test system | setting | scale | MIC
NCC[C@H](O)C(=O)N[C@@H]1C[C@H](N)[C@@H](O[C@H]2O[C@H](CN)[C@@H](O)[C@H](O)[C@H]2O)[C@H](O)[C@H]1O[C@H]1O[C@H](CO)[C@@H](O)[C@H](N)[C@H]1O | resazurin microtiter | ATCC 19977 |  |  | 2.1 µg/mL
O=C(CO/N=c1\cc2n(-c3ccc(Cl)cc3)c3ccccc3nc-2cc1Nc1ccc(Cl)cc1)NCc1ccc(C(F)(F)F)cc1 | bacterial growth | ATCC 19977 |  |  | > 30 µM
CCCCCCC#Cc1cncc(-c2nnc(SCc3ccc([N+](=O)[O-])cc3)n2C)c1 |  |  |  | no activity below value | ≥ 200 µM
O=C(CNc1ccccc1)NC1C2CC3CC(C2)CC1C3 (stereo not shown) | broth microdilution |  | 120 h |  | inactive
CCCCCCC#Cc1cncc(-c2nnc(SCc3ccc(C#N)cc3)n2C)c1 |  |  |  | no activity below value | ≥ 200 µM
Nc1nc(N)c(OCCCOc2ccccc2CCC(=O)O)c(C2CCCCC2)n1 | resazurin microtiter | ATCC 19977 |  |  | 1.5 µg/mL
CC(C)/N=c1\cc2n(-c3ccc(Cl)cc3)c3ccccc3nc-2cc1Nc1ccc(Cl)cc1 | bacterial growth | clinical isolate |  |  | 3.75 µM
CO[C@H]1/C=C/O[C@@]2(C)Oc3c(C)c(O)c4c(c3C2=O)C2=NC3(CCN(CC(C)C)CC3)NC2=C(NC(=O)/C(C)=C\C=C\[C@H](C)[C@H](O)[C@@H](C)[C@@H](O)[C@@H](C)[C@H](OC(C)=O)[C@@H]1C)C4=O |  | clinical isolate Bamboo |  | 90% growth inhibition | 1.1 µM
Cc1ccc(NCC(=O)N[C@H]2CC[C@H](C)CC2)cc1 | broth microdilution |  | 120 h |  | inactive
O=C(CO/N=c1\cc2n(-c3ccc(Cl)cc3)c3ccccc3nc-2cc1Nc1ccc(Cl)cc1)NCc1ccc2c(c1)CCO2 | bacterial growth | clinical isolate |  |  | > 30 µM

Excerpt of the above:
Structure (SMILES) | test | test system | setting | scale | MIC
O=C(CO/N=c1\cc2n(-c3ccc(Cl)cc3)c3ccccc3nc-2cc1Nc1ccc(Cl)cc1)NCc1ccc2c(c1)CCO2 | bacterial growth | clinical isolate |  |  | > 30 µM
